Experimental data collected from several papers.
Every numbered part comes from another study and shows a few of its results, in no order.

Set 1 — technique: RNA Bind-n-Seq; form: RNA; sample: in vitro; concentration: not given; setting: RNA with constant flanks, ends assumed; reference: input RNA pool; direction: higher = stronger binding
Target: RING finger protein unkempt homolog, zinc fingers 1-6, GST-SBP tag (UNK, Homo sapiens, UniProt Q9C0B0, residues 30-357)
Constant ends, left off below: GGGAGUUCUACAGUCCGACGAUC … CAACAGAGGAUUGAGCAUCA
Target sequence (chain): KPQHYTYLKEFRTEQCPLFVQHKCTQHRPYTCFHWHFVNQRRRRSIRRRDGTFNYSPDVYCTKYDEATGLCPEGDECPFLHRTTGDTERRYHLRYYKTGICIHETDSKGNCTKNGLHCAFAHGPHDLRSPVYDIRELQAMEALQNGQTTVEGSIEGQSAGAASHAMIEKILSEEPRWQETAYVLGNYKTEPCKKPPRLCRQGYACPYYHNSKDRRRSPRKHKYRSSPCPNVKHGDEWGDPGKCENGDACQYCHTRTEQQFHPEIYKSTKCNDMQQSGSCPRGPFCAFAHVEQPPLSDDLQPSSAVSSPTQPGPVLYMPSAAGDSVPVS
| Oligonucleotide | bound/input enrichment [ratio] |
| --- | --- |
| ACCACUGGUGGAAUUGAUGAUAUGUGUCUGAAGUAUUUUGUGGAGGCUGGUGCUAUGGCAGUCCGAAGAGUUUUAAAAAGGGACCUUAAACGCAUUGCCAAAGCUUCUGGAGCAACUAUU | 0.218 |
| GAAGAGGUUCUGCUGGAACAAGCUGGUGUAGAUGCAAGUGAAAGCUUUGAAGAUGCCGGACACUCUUCUGAUGCCAGAGAAAUGCUAAAGCAGUACUACAUUGGUGAUAUCCAUCCGUUG | 0.168 |
| GUACUGCAACAGCAGGGCAAGCUGCAGGAAGCACUGAUGCACUAUAAAGAAGCCAUACGAAUCCGUCCUACAUUUGCUGAUGCUUAUUCCAAUAUGGGAAACACUCUAAAGGAGAUGCAG | 0.164 |
| GUUCAAGAAGAGCUCCUGAAAGGCUUGGACAAUAAGAAUCCCAAGAUCAUAGUGGCCUGUACCGAGACACUGAGGAAAGCCUUAAGUGAAUUUGGUUCCAAAAUCAUCUUGCUUAAGCCA | 0.507 |
| CUGGGUUUGCCAGCUGUUCCUGCGGUGACACUGUAUAAACACGAUGACCCUGCCUUGACUUCCGUUGCUGGUCUUACAUCAAAUAAGCCCACAGACAAACUCCGUGCCCUGCCUCUGUGG | 0.0628 |
| ACCUCCCAAGUCCUUUAUGAAUGGGAGCAAGGCUUUUCCCAGUCCUUCACGCAAGAGCAAGCCGCUGAUAUUGACGGGCAGUAUGCAAUGACUAGGGCUCAGAGGGUCCGAGCUGCCAUG | 0.0795 |
| AAGAUUAAAUUGCUUACUGGUAAACGCGUUCAACUGGCGGAAGACCUCAAGAAAGUCCGAGAAAUUCAAGAAAAACUUGAUGCUUUCAUUGAAGCUCUUCAUCAGGAGAAAUAAAUUAAA | 0.152 |
| GAUGUGGAAAUAAUCUUUAAUGAGCGCGGCUCCAAGGGAUUCGGGUUCGUAACUUUCGAGAACCGUGCUGAUGCAGACAGGGCCAGGGAGAAAUUGCACGGCACCGUGGUAGAGGGCCGU | 0.366 |
| AGCUUGAGCAGUUUGUUAAAGAAUGACAUUUCAGAUUCGGGAAUUGUGGGGCUUCAGCCCACCGACUUUGUCGCCAGUGCUCAUCAGCAUCCAGUGAGUGAGAGGCAAGAGGAGAUUCCC | 0.22 |
| GGCAUCUGGGCAGCGGACGAUGGAAGAACUCUGGGCUUCGGCUGGGACCUUUCGUUCAUGCCGCAGGAACCGGAGAUGGUUGCGUAGAGCAGCCCACGGUUUUGUGGAAAUCUGAAAACU | 0.15 |
| CUAAUCGUGUCAGCAGAAGCACUUACUAUGAAAUCAUUUUUUUAAAGAAAUCUGCACAGCCGAUUUUUACAUUGAGCUGAGAUGAAUAUGCCUUGAAAAUAAUAUAAGUGUGAAAUUGUU | 0.105 |

Set 2 — technique: protein-binding microarray; form: double-stranded DNA, one strand shown; sample: in vitro; concentration: 0.8 µM; setting: whole 60-bp probe, no competitor; direction: higher = stronger binding; constant ends, left off below: … GTCTTGATTCGCTTGACGCTGCTG
Target: Centromere-binding protein 1, full length, N-terminal tag (CBF1, Saccharomyces cerevisiae, UniProt P17106, residues 1-351)
Chain of UniProt P17106 (whole entry, looked up): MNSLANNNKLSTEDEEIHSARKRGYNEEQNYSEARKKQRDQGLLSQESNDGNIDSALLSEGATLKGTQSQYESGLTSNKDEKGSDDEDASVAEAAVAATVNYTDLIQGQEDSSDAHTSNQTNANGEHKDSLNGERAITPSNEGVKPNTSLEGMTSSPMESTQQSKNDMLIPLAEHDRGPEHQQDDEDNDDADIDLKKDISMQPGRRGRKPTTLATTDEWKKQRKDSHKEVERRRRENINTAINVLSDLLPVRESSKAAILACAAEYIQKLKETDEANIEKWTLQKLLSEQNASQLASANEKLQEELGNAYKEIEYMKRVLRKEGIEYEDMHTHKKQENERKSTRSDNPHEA
| Oligonucleotide | fluorescence intensity [a.u.] |
| --- | --- |
| GAATCTAGCAGTACTAGCGTGATGTTAATGTTATAG | 627 |
| CTATATAGTAGTACTCACGTTACTAGTATATCATTC | 1170 |
| GAATTTCGGTGACATCAGTTGAAAGTAGCAGCGTAG | 542 |
| CTACATTGAAATAATATCGTGATTATGGGCTGGTTC | 716 |
| CCTAACTACTATATTCACGACACATAGCTTCGTACA | 544 |
| CTAATAGAGGCAGGTGGTGTTTCCTCGTGTCCGTTC | 621 |
| CTACATCATATTGGTCATGATTAATAATAAACCTTC | 606 |
| TGTACGAAGCTATCACATGTGAATATAGTAGTTAGG | 1940 |
| GAATATGCATTTTCTCATGACCTATTCATTCGGTAG | 608 |
| TGTACGAAGCTATGACGCGTCACTATAGTAGTTAGG | 483 |
| GAATAAGCAGATGCTAACATCATGAACAAAAAATAG | 564 |
| GAATTTCGATCAATTCTCCTGATATTATTGAGTTAG | 498 |
| CTAGGTCAGAAAACACACGCGGAAAATCCAAAGTTC | 531 |
| GAAAGTGGCTACCATCATGAGATATGATATTCTTAG | 550 |
| GAACGTTGGTGTGCCGACGTGATACAGAGCGGTTAG | 586 |
| CCTAACTACTATACAAATGTGTCATAGCTTCGTACA | 530 |
| GAAGTAGTGACTCATCTGACTATATTACCGGTTTAG | 580 |

Set 3 — technique: protein binding microarray; form: double-stranded DNA, one strand shown; sample: in vitro; concentration: not given; reference: not given; direction: higher = stronger binding
Target: Histone acetyltransferase KAT6A, winged helix 2, GST fusion (KAT6A, Homo sapiens, UniProt Q92794, residues 85-181)
Setting: 8-mer, flanks averaged, mean of 2 arrays, mostly near background
Residues (chain): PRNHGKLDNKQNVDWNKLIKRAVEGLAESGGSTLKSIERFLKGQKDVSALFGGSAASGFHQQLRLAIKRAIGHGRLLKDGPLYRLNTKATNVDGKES
| Oligonucleotide | E-score |
| --- | --- |
| AATTGTGA | 0.0243 |
| CTATAGCC | -0.196 |
| CGACTACG | -0.123 |
| CAACTATC | -0.0415 |
| AAAGCTCA | -0.0399 |
| CTGGAGGC | 0.0307 |
| ACTAAGAG | 0.0887 |
| CGAATCGA | 0.0598 |
| TATGATAA | 0.145 |
| CGAATGAG | -0.0451 |
| CCCTCCTC | 0.118 |
| AGTGAAAG | 0.114 |
| GCTTCAAA | 0.0955 |
| GGCGACCC | 0.0357 |
| TAAGACTA | -0.262 |
| GGCAGCAC | -0.056 |
| CAATATCG | -0.0653 |
| GCCGCACA | 0.14 |
| GGGACGTA | -0.107 |
| AGGTACTC | -0.058 |
| ATTGTCTC | -0.091 |
| GATTCAGA | 0.134 |
| CGCTGAAG | 0.117 |
| GACAGGCA | 0.1 |
| CATTGGCG | 0.0109 |

Set 4 — technique: RNA Bind-n-Seq; form: RNA; sample: in vitro; concentration: 200 nM; setting: whole 134-nt RNA, ends assumed; added: 150 mM LiCl; reference: input library; direction: higher = stronger binding; library: 7-deaza-guanosine replaces G
Target: Fragile X messenger ribonucleoprotein 1, C-terminal low-complexity region (Fmr1, Mus musculus, UniProt P35922)
Constant ends, left off below: GGGAGUUCUACAGUCCGACGAUC … UGGAAUUCUCGGGUGUCAAGG
| Oligonucleotide | log2 enrichment |
| --- | --- |
| GUCCUGUGCUACACAUCGUAUGUACCGAAUCGGGAAAAAAAGGGAAAGGGUUUUUGGGAAAGUAUUAUGUUACGCCGUUCGGAUCUGCAC | -1.51 |
| UGGGAGGUGGAUUUUGUGUAUUUUUUUAGCUCAUUUCCAGGGGUGGGAAUUUUUUUUUAAUAUGUGUCAUGAAUAAAGUUGUUUUUGAAA | 0.422 |
| CACAGACAACACGCACCCACACAGACACAGAAAAAAGGGGUUGGGAUGGGGACAGGGUGCACAGCAGGGCGGGGUAGGACCCCAGCCCCU | 0.432 |
| AGUCCUGUGCUACACAUCGUAUGUACCGAAUCGGUUUUUGGUUUUUGGGGUUUUUGGAAAGUAUUAUGUUACGCCGUUCGGAUCUGCACU | -1.98 |
| GCAGGAAGUAAAAACAAAUGGAAAUGCUUCGGAUAGUGGCAGGGGUGGGGGUUGCUAAGGAAAGGGUGGGAUGGGAGUGGGUAAAGAAAU | 1.54 |
| UGGACUGCCUAUGGAAGAAGAAGUUCAAGAAGGAGCACGAGGAGUUUGAGACCAUGGAGAACGUGAACCGCCUUCUUCUGGAGAACGUCC | -1.58 |
| UCCUGUGCUACACAUCGUAUGUACCGAAUCGGAAAAAAAGGUUUUUUUGGUUUUUUUGGAAAGUAUUAUGUUACGCCGUUCGGAUCUGCA | -2.64 |
| UCCUGUGCUACACAUCGUAUGUACCGAAUCAAAUUUUUUUAAAUUUUUUUAAACCCAAAAAAGUAUUAUGUUACGCCGUUCGGAUCUGCA | -0.455 |
| UUUGCUUGCAGUAUCUGUUUCUCUUCCUAGGCUCAAGUUGGUGACCCAAGCCUAUUGUAAACAAGUGAUUAUCUCAAAGGGAGAUGCCAA | -1.16 |
| GUCCUGUGCUACACAUCGUAUGUACCGAAUCGGGGAAAAAGGGGAAAAAGGAAAAAGGGAAAGUAUUAUGUUACGCCGUUCGGAUCUGCA | 0.568 |
| CCUCAAGUCCUGUGCUACACAUCGUAUGUACCGAAUCGGGGCGGGCGGGCGGGAAAGUAUUAUGUUACGCCGUUCGGAUCUGCACUUCCA | -0.962 |

A few entries again (set 3):
| Oligonucleotide | E-score |
| --- | --- |
| AGTGAAAG | 0.114 |
| GCTTCAAA | 0.0955 |
| GGCGACCC | 0.0357 |
| TAAGACTA | -0.262 |
| GGCAGCAC | -0.056 |
| CAATATCG | -0.0653 |
| GCCGCACA | 0.14 |
| GGGACGTA | -0.107 |
| AGGTACTC | -0.058 |
| ATTGTCTC | -0.091 |
